Results pooled from the literature.
Numbered parts are unrelated; each lists some results of a single study. Substitutions count along the parent as printed.

Set 1
Target: Sal-like protein 4, full length isoform B (SALL4, Homo sapiens, UniProt Q9UJQ4-2, residues 1-616)
Method: universal PBM
Form: double-stranded DNA, one strand shown
Medium: in vitro
Concentration: not given
Setting: 8-mer, flanks averaged, mean of replicates
Reading: higher = stronger binding
Quantity: E-score
CAAATGTA: 0.306
ACCGTGCC: -0.147
CGGGCTCC: -0.34
AAAGGATG: 0.152
ATAGGTAA: 0.257
TATCTTGA: 0.145
CGGTCCAC: -0.331
CCCTGTAC: -0.223
AAGCGGGT: -0.262
ACACTACC: -0.244
GAACCCAA: -0.0702
CTCACTTC: -0.206
CCGCGGGC: -0.383
AATCTACA: 0.175
CAAGGGCC: -0.239
ACCCGTTG: -0.332
CTAAGGCC: -0.177
ACAACAGT: -0.0524
GGCGTCCC: -0.395
GGACAAAA: 0.0791
ATGTACCC: -0.0748

Set 2
Target: RNA binding protein fox-1 homolog 2, RRM domain, GST-SBP tag (RBFOX2, Homo sapiens, UniProt O43251-10, residues 100-194)
Method: RNA Bind-n-Seq
Form: RNA
Medium: in vitro
Concentration: 365 nM
Setting: natural RNA segment, single round, ends assumed
Baseline: no-protein control
Reading: higher = stronger binding
Quantity: RBNS enrichment (R)
Residues (chain): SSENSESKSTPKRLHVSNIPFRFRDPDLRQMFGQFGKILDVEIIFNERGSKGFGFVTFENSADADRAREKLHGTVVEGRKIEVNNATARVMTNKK
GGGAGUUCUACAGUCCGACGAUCUGUUGGGUUAUUCCAGCCAAAGACAUUUCAAGUGCCUGUAACUGAUUUGUACAUAUUUAUAAAAAUCUAUUCAGAAAUUGGUCCAAUAAUGCACGUGCUUUGCCCUGGGUUGGAAUUCUCGGGUGCCAA: 5.63
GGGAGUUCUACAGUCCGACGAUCAAUUGUAUGAAAAAAAAACUCUGCCUUCAAGCCUUUAAGGCAGGUUUUUAAGUCAUCAGCCAUAGUCCUAGGGUGAAGAACUCCAUUUGUGGGCCUUGUUCCCUUUGAAGUGGAAUUCUCGGGUGCCAA: 0.763
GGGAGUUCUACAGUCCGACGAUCAUUAAAAAUAUUUUGAUUUAAAUAACAAAAAUAAUACCAGAUUUUAAGCCGUGGAAAAUGUUCUUGAUCAUUUGCAGUUAAGGACUUUAAAUAAAUCAAAUGUUAACAAAUGGAAUUCUCGGGUGCCAA: 0.578
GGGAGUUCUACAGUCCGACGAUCUUUGUUUGUUUAAUAGCACAAAUGCUUAUUUGUUAUCCAAAAACAACCUCCUUCUUAUCUGUGAUAAAUCUAUAGAAAGAAUUUAGCUGCAAGUGGACAAAGGAACAAGCUGGAAUUCUCGGGUGCCAA: 0.463
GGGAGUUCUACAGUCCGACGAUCAGAAGGUGAACAACCUGAAAGCGCCUGUGAAGGGAACCAGUCACUCUUCUGUACCUCUCUUCUCUUAGAGAAAAAAAUGCCUUCCUUGCUUUGUAUCAUACCCAAUAUUUUGGAAUUCUCGGGUGCCAA: 0.554
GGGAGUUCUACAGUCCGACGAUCGUUCUGACCCGUCAGCAGCCUGCUUCUGACCCAAGAUGGCCUCGUGACUAGACCUGUUUUUAAGGAAGCGCUGUCUGUUUUUAAGUAUUCUUAAAAACGUUUUGGAAAGCUGGAAUUCUCGGGUGCCAA: 0.25
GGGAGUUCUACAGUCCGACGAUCCAAAGGGGAACCUUGCUUCUGUGGUAGUAGAGGAGCAUUGUGCCUGGAAUUUCAGGAACUAUUGGAGCACGGCACAAUUGAUGCACAGGUAUUUCCUCCUGGCCCUUUUGUGGAAUUCUCGGGUGCCAA: 0.576
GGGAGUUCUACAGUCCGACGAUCGCCCACCGAGGACUACAUGAGCCAUAUCAUUGAGAAGUGUAGUAGUGUCAGGGGCAGAGAGUGAUGGGCACGAUUUAACAGGGAAAGAAAUGGGGCCAACAGUUCUUCCUUGGAAUUCUCGGGUGCCAA: 0.337
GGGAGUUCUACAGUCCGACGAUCCCCCUGCCCAUAGGCCAACAACCAUAGUUCCUCACAUUAGUGAUUAGCAGACUCUUUGUGGACGAGUGAAUUUCACAAACAGCACAAUUUCAGAAGAAAUCGAGGGCACAUGGAAUUCUCGGGUGCCAA: 0.414
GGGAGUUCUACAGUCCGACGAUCAUACCCAAUAACAAAAUCUGCCGGUUUGUCACAGUGGCUCACCUCCCAGAACUCUGAGCAAAGGGACUGUGAUGCCAAACCAGACUUUGGUCCCUUCCUGAGCCCUGCUCUGGAAUUCUCGGGUGCCAA: 0.278
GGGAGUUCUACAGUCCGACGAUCAUAAAACAACAAAAUUAAUAAUGAAAUGGAGGGGAAUUCUAGAAUUAUAUGCUAAAUGCAUAUUUUAUGAUUUGCUGUAUUAACUGAUGAUAAAACUAAUGGCAGAAAAAUGGAAUUCUCGGGUGCCAA: 1.55
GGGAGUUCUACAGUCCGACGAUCCUGAGGGGUCUAUAGGUUUGUGAUUAAAAUAAUAAAAGCUAGGCGUGUUUGAUGCGCUUUUAACUUUGCAAAGAGUCUCCUGUCCUUGUUUUACACUGUGCAGUGAACAUUGGAAUUCUCGGGUGCCAA: 0.451

Set 3
Target: PABPC1L2, full length, GST fusion (mouse, UniProt A0ABA7IW68)
Method: RNAcompete
Form: RNA
Medium: in vitro
Concentration: 20 nM
Setting: 7-mer, probes averaged, single round
Baseline: mean of 7-mers
Reading: higher = stronger binding
Quantity: 7-mer Z-score
Residues (chain): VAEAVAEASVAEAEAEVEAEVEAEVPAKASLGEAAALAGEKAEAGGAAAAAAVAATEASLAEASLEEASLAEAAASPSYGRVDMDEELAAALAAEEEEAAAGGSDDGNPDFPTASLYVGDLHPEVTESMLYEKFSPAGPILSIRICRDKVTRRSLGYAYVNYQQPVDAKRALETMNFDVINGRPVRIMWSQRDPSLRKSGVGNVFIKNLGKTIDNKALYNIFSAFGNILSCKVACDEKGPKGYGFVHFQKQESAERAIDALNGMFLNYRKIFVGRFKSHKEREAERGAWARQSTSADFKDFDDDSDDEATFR
UUGCAGG: -0.137
ACGUCCA: -0.0283
AGGCGUU: -0.0518
GCGACAC: -0.0536
CCGUAAG: -0.362
GAAGUGG: 0.14
CUUUAAC: -0.132
AUCCUGC: -0.425
AGAAGUA: -0.11
GCUAAAC: 0.367
GCCUCCA: -0.387
ACCACUG: -0.199
GGUAGCU: -0.0337
CUGCUAG: -0.211
CGUUUAA: -0.26
AUAUCGC: -0.139

Set 4
Target: Histone acetyltransferase KAT6A, winged helix 1, GST fusion (KAT6A, Homo sapiens, UniProt Q92794, residues 1-85)
Method: protein binding microarray
Form: double-stranded DNA, one strand shown
Medium: in vitro
Concentration: not given
Setting: 8-mer, flanks averaged, mean of 2 arrays, mostly near background
Baseline: not given
Reading: higher = stronger binding
Quantity: E-score
Residues (chain): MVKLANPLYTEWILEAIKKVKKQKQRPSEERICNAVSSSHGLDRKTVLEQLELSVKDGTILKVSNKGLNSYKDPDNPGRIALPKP
CTCTACTA: -0.171
GCAGGAGC: 0.0215
TATGAGCA: -0.212
CGGTATTC: 0.208
AACTTAGT: 0.0113
AAATGTGC: 0.0675
AGCCCGAT: -0.0222
AAAGACTG: -0.125
CAACTCCC: -0.000395
CGCAATAG: 0.124
GACGAAAC: -0.0349
ATCTTGTG: -0.295
ATCTACGG: 0.32
CACGTAGA: -0.236
GGTGATTA: -0.0122
CTTGCCAA: -0.276
CGGAGAAC: 0.0471
CGACCCCG: 0.38
ATACGGTA: 0.222
GAACGCCA: -0.0541
GAAATGGC: 0.129

Set 5
Target: Interferon regulatory factor 5, full length, phosphomimetic (IRF5, Homo sapiens, UniProt Q13568-2, residues 1-514, S451D/S453D/S456D/S462D)
Method: protein-binding microarray
Form: double-stranded DNA, one strand shown
Medium: in vitro
Concentration: 940 nM top
Setting: 60-bp whole probe
With: salmon DNA 0.4 mg/ml
Baseline: random background probes
Reading: higher = stronger binding
Quantity: fitted relative affinity
All sequences stand within: GCCTAGCAC … GTCTTGATTCGCTTGACGCTGCTG
GACGGACTGGGACTGAGGACGTGCTAG: -0.613 z-score
GACGGATTGGGTATCGGGACGTGCTAG: 1.33 z-score
TTAGGTTTCGGGAATGGGTTAGTGCTA: 8.33 z-score
GACGGTATCGACACTGGGGCCGTGCTA: 3.76 z-score
GACGGTCTCGGTCGCGGGACGTGCTAG: 3.32 z-score
GACGGTATCGCCTTTCGGGACGTGCTA: 2.98 z-score
AACAATATATATATTATATAGTGCTAG: -0.153 z-score
TTAGGTATCATTATCCTTTAGTGCTAG: 3.97 z-score
TTAGATATCGGATTTCGATTAGTGCTA: 0.53 z-score
GACGGTATCCTGTTCCTGACGTGCTAG: 0.207 z-score
GCAGGGCTCTCTTCTGCTTCCGTGCTA: -0.219 z-score
TACGATATCGGGTATCGAGACGTGCTA: 1.03 z-score
CTTTAACTCATTCTCCACTTGTGCTAG: 1.23 z-score
TTAGATCTCAGAATCGATTAGTGCTAG: 0.25 z-score
TTAGCTATCGGGACTGGGTTAGTGCTA: 0.476 z-score
GACGGACTGGGGTTTCTGGACGTGCTA: 0.0867 z-score
TTACATATCAGACTGGATTAGTGCTAG: -0.194 z-score
GACGGTTTCGGTTCCGGCACGTGCTAG: 14 z-score
GGTCCTCTCTCTATTCAGAGGTGCTAG: 0.944 z-score
TCATCATTGCCTATTTTTCCGTGCTAG: 0.91 z-score
TTAGGACTGGGACTGGGTTCGTGCTAG: -0.475 z-score
TTAGTACTGGGTCTCGGTTAGTGCTAG: 1.42 z-score
CACGATTTCAGTATCGAGACGTGCTAG: 2.25 z-score
TCAGTTTTCTTTTCATTACTGTGCTAG: 2.4 z-score
TTAGGAATCGGTATCGGTTAGTGCTAG: 5.78 z-score

Set 6
Target: CCNB3, cyclin fold, Cln2 fusion (human)
Method: yeast growth competition, sequencing
Medium: yeast
Setting: weak parent motif
Baseline: not given
Reading: higher = stronger binding
Quantity: normalised enrichment score
Starting sequence: USP37 docking peptide (human); PSAKRSLGFLPQP; partner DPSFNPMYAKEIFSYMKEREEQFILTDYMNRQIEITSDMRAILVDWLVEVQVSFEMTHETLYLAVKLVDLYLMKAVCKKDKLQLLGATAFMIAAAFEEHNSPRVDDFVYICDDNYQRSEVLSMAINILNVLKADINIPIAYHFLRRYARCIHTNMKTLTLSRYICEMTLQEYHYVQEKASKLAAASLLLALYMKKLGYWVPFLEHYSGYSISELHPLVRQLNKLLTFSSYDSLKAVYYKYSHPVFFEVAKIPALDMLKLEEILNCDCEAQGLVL
PSAARSLGFLPQP [K4A]: 0.413
PSAKRSAGFLPQP [L7A]: 0.104
PSAKRSLGFLAQP [P11A]: -0.21
ASAKRSLGFLPQP [P1A]: 0.101
PAAKRSLGFLPQP [S2A]: 0.243
PSAKRSLGFLPAP [Q12A]: 0.554
